Measured values gathered from unrelated publications.
MAP3K20 Cys22: Mitogen-activated protein kinase kinase kinase 20, Cys22 (MAP3K20, Homo sapiens, UniProt Q9NYL2)
MAP3K20: Mitogen-activated protein kinase kinase kinase 20 (MAP3K20, Homo sapiens, UniProt Q9NYL2)

SMILES | target | test | test system | conditions | how to read | quantity | value
CCCCCCCCCCCCC/C=C/C=O | MAP3K20 Cys22 | competitive isoTOP-ABPP | proteome, soluble, MDA-MB-231 | 100 µM, 60 min, with: iodoacetamide probe | relative to: DMSO over compound-treated, higher = stronger cysteine blockade | isoTOP-ABPP competition ratio | 1.1
CS(=O)(=O)Nc1cccc(-c2csc3cnc(Nc4ccc(N5CCN(CCCCCOc6cccc7c6C(=O)N(C6CCC(=O)NC6=O)C7=O)CC5)cc4)nc23)c1 (stereo not shown) | MAP3K20 | probe labelling, inhibitor, KiNativ chemoproteomics | MOLT-4 | 1 µM | – | inhibition | 2.38%
CCn1cc(C(=O)O)c(=O)c2c(N)c(F)c(NC3CCCCC3)cc21 | MAP3K20 | kinase activity | – | 0.1 µM, with: ATP at Km | – | inhibition | -5.7%
C[C@H]1CN(C(=O)c2cn(-c3ccnc(N)n3)c3cc(C#CC4(O)CCCCC4)ccc23)CCN1 | MAP3K20 | cell-free assay, TR-FRET | – | 1 µM | – | inhibition | -1%
NC(=O)C[C@H]1CCc2sc3ncnc(O[C@H]4CC[C@H](N5CCOCC5)CC4)c3c21 | MAP3K20 | enzyme activity, inhibitor | – | 10 µM | – | inhibition | 5%
CC(C)=CC1OC(C)(C)C2C=C3C(=O)C(Cl)=CC(O)C3C3C(O)C4OC4C(=O)C132 (stereo not shown) | MAP3K20 | cell-free assay, competition with immobilised ligand | – | 10 µM | – | remaining binding | 92%
C=CC(=O)Nc1cc(-c2nn(C3CCN(CCNC(=O)[C@H](C)CCC45CC6CC(CC(C6)C4)C5)CC3)c3ncnc(N)c23)ccc1Oc1ccccc1 | MAP3K20 | inhibitor, KiNativ profiling | biochemical | 2 µM | – | inhibition | 24.9%
COc1c(Cl)cccc1Nc1c(-c2ccncc2C#C[C@@]2(C)CCCN2C(=O)/C=C/CN(C)C)[nH]c2c1C(=O)NCC2 | MAP3K20 | binding, competition with immobilised ligand | – | 3 µM | – | remaining binding | 84%
CCN1CCN(Cc2ccc(C(=O)Nc3ccc(C)c(NCc4cnc5[nH]ccc5c4OC)c3)cc2C(F)(F)F)CC1 | MAP3K20 | binding, competition with immobilised ligand | – | 1 µM | – | remaining binding | 0.6%
CNC(=O)C[C@H](Cc1ccc(C#N)cc1)NC(=O)c1cc(-c2ccc(CN[C@H](C)c3ccc(C)cc3)o2)ccc1Cl | MAP3K20 | enzyme activity, inhibitor | – | 1 µM | – | activity vs control | 111%
O=C(Cc1ccc(OCc2ccccc2)cc1)NC1(C(=O)O)CCN(C(=O)c2ccc(-c3cccc(Cl)c3)cc2)CC1 | MAP3K20 | enzyme activity, inhibitor | – | 10 µM | – | activity vs control | 93%
CCCCCC(O)/C=C/C=O (stereo not shown) | MAP3K20 Cys22 | competitive isoTOP-ABPP | proteome, soluble, MDA-MB-231 | 100 µM, 60 min, with: iodoacetamide probe | relative to: DMSO over compound-treated, higher = stronger cysteine blockade | isoTOP-ABPP competition ratio | 15
C=CC(=O)N1Cc2nc(-c3cc(-c4cc(Cl)cnc4Cl)c(F)cc3F)n(-c3ccncn3)c2C1 | MAP3K20 | cell-free assay, inhibitor | – | 1 µM | – | inhibition | 1.9%
CCN1CCN(Cc2ccc(NC(=O)c3ccc(C)c(NC(=O)c4cncc(-c5cccs5)c4)c3)cc2C(F)(F)F)CC1 | MAP3K20 | binding, competition with immobilised ligand | – | 1 µM | – | remaining binding | 0%
COc1cc(Nc2nccc(-c3cnn4nc(OC)ccc34)n2)cc(C(F)(F)F)c1 | MAP3K20 | binding, competition with immobilised ligand | – | 1 µM | – | remaining binding | 100%
CN1CC[C@@H](COc2cnc(C#N)cc2-c2ccn3nc(NC(=O)C4CC4)cc3c2)C1 | MAP3K20 | enzyme activity, inhibitor | – | 1 µM | – | inhibition | 17%

A few entries again:
SMILES | target | test | test system | conditions | how to read | quantity | value
COc1c(Cl)cccc1Nc1c(-c2ccncc2C#C[C@@]2(C)CCCN2C(=O)/C=C/CN(C)C)[nH]c2c1C(=O)NCC2 | MAP3K20 | binding, competition with immobilised ligand | – | 3 µM | – | remaining binding | 84%
O=C(Cc1ccc(OCc2ccccc2)cc1)NC1(C(=O)O)CCN(C(=O)c2ccc(-c3cccc(Cl)c3)cc2)CC1 | MAP3K20 | enzyme activity, inhibitor | – | 10 µM | – | activity vs control | 93%
